Results gathered from unrelated publications.
Each line is one published result; not all experiments were run side by side. Values joined by “and” are separate records of one study, mostly repeats; a detail may differ. ± marks the error that the study gave.

`Oc1ccc(Br)cc1C=NCCN1CCOCC1`: “ferric reducing power” 31.3% (FRAP; 160 µM).
`N#Cc1ccc2c(c1)[C@H]1CCCN(C(=O)c3ccc4[nH]cnc4c3)[C@H]1C2` — result for “fasting plasma glucose”: 152 mg/dL (T2DM patients with overweight or obesity, plasma; oral, 40 mg, day 15 (360 h), multiple dosing, mean).
For `O=C(O)CNC(=O)Cc1ccccc1`, the sarcomere length was 1.72 µm (ventricular cardiomyocytes, C57BL/6 mouse; dose not given, 0.34 s).
Under “tumour growth inhibition”, `C=CCn1c(=O)c2cnc(Nc3ccc(N4CCN(C)CC4)cc3)nc2n1-c1ccc2c(n1)[C@@](O)(CC)CC2` is recorded as 104% (OVCAR-3 xenograft, NOD/SCID mouse; 100 mg/kg once daily, :2).
`O=P(O)(O)C(Cl)(Cl)P(=O)(O)O` gave a distance travelled of 35 m and 33 m and 28 m and 29 m (open field test; UT+/+ and UT-/- mice, sham; 23000 µg/mL).
Under “PNH RBC clone size”, `CCO[C@H]1CCN(Cc2c(OC)cc(C)c3[nH]ccc23)[C@H](c2ccc(C(=O)O)cc2)C1` is recorded as 46.8% (PNH patients, blood; oral, 50 mg then 200 mg, week 12, mean absolute change; reference: baseline).
Under “EEG Beta2-power Fz-Cz”, `OC(CCN1CCCCC1)(c1ccccc1)C1CC2C=CC1C2` (stereo not shown) is recorded as 0.9 µV² (resting-state EEG; healthy elderly humans; oral, 4 mg, eyes closed, LS mean).
`O=Cc1cc(O)ccc1O`: “log2 fold change” -0.0411 (binding, MIDAS equilibrium dialysis LC-MS; A2AR-BRIL thermostabilized; concentration not given; reference: no-protein control).
The hazard ratio of `O=C1CCc2ccc(OCCCCN3CCN(c4cccc(Cl)c4Cl)CC3)cc2N1` is reported as 1.59 (treatment discontinuation, Cox regression; human patients, CYP2D6 IM/PM/UM; dose not given, 12 months, genetic phenotype only; reference: CYP2D6 normal metabolizers).
For `COc1ncc(-c2nc3c(n2C(C)C)[C@H](c2ccc(Cl)cc2)N(c2cc(Cl)cn(C)c2=O)C3=O)c(OC)n1`, “best overall response” read 4.2% (International Working Group criteria; human acute myeloid leukemia patients; oral, 120 mg, response CR, high-dose, recommended dose for expansion).
`Cc1noc(C)c1-c1cc(C(O)(c2ccccn2)c2ccccn2)c2nc(C3CC3)[nH]c2c1` gave a maximum induction of 3% (refers to: HEXIM1 expression; human, peripheral blood; 4 mg, day 1, 1604 study).
For `CC(C)NCC(O)c1ccc(O)c(O)c1` (stereo not shown), the sarcomere length was 1.49 µm (ventricular cardiomyocytes, C57BL/6 mouse; dose not given, 0.204 s).
`NC(=O)c1cnc2[nH]ccc2c1N[C@@H]1[C@@H]2CC3C[C@H]1C[C@@](O)(C3)C2`: “CD4+ effector T-cell change” 0.02% (flow cytometry; Japanese healthy men, blood; oral, 100 mg twice daily, 72 h after day 7 dose; reference: baseline).
`CCCCCN1C[C@H](O)[C@@H](O)[C@H](O)[C@@H]1CO`: “genomic disease score” 0.32 (RNA sequencing, refers to: Hallmark interferon alpha genes; Hexb-/- mouse, hippocampus; 30 mg/kg/day; direction not given).
For `CO[C@H]1CC[C@H](N2C(=O)CNc3ncc(-c4ccc(C(C)(C)O)nc4)nc32)CC1`, “pAKT change from baseline” read -59.1% (flow cytometry; stimulated monocytes, human, blood; 45 mg single dose, 5 h, median; reference: baseline).
`C[C@H]1C[C@H]2CSC(N)=N[C@@]2(c2nc(NC(=O)c3ccc(OC(F)F)cn3)cs2)CO1` — result for “percent change from baseline”: -82% (refers to: Aβ1-40; healthy adults, plasma; 160 mg single dose, 48 h post-dose; reference: placebo).
Under “pathway activation z-score”, `Cn1cc(Nc2nccc(-c3ccc4c(c3)CN(C3COC3)CC[C@H]4NC(=O)c3cn(C(C)(C)C)nn3)n2)cn1` is recorded as -2.24 (refers to: folate polyglutamylation; splenic B cells, mice; 30 mg/kg, IgD-activated in vivo; reference: vehicle, direction not given).
`N#C/C(=C\c1ccccc1)c1ccncc1` — result for “β-elimination rate constant”: 0.152 min⁻¹ (pH 7.4).
`O=C1O[C@H]([C@@H](O)CO)[C@H](O)[C@@H]1O` — result for “log2 fold change”: 0.0216 (binding, MIDAS equilibrium dialysis LC-MS; A2AR-BRIL thermostabilized; concentration not given; reference: no-protein control).
`Cc1cn(C(=O)c2c(-c3c(Cl)cc(Cl)cc3Cl)noc2C(C)(C)F)c2cccc(/C=C/C(=O)O)c12` has a D-2-hydroxyglutarate concentration of 22 pmol/mg and 21 pmol/mg and 15 pmol/mg (LC-MS/MS; human, resected tumour tissue, multiple samplings; 125 mg twice daily, end of treatment).
`Cn1cc(-c2ccc(-c3cncc(Cl)c3N3CCC4(CCNC4=O)CC3)cc2)cn1`: “log2 fold change” -2.64 (COLO 205; gene expression, microarray, refers to: HIST1H4I mRNA; concentration not given, 6 h; reference: untreated cells).
For `CC(C)[C@H](NC(=O)[C@H](Cc1ccc(O)cc1)NC(=O)[C@H](Cc1ccc(O)cc1)NC(=O)[C@@H]1CCCN1C(=O)[C@H](CCC(=O)O)NC(=O)[C@H](CCC(=O)O)NC(=O)[C@H](Cc1c[nH]c2ccccc12)NC(=O)[C@@H]1CCCN1C(=O)[C@@H](NC(=O)[C@H](CCC(N)=O)NC(=O)c1ccc2c(c1)C(=O)OC21c2ccc(O)cc2Oc2cc(O)ccc21)C(C)C)C(=O)N[C@H](C(=O)N[C@@H](CCCCN)C(=O)N[C@@H](CCCCN)C(=O)N[C@@H](CO)C(=O)N[C@@H](CO)C(=O)NCC(=O)NCC(N)=O)C(C)C`, “share of responses” read 7.7% (nerve branching; human head and neck surgery, nerves; 500 mg, improved; reference: white light).
For `N#Cc1ccn2c(-c3ccncc3)c(-c3ccc(F)cc3)nc2c1`, “log2 fold change” read -0.0922 (kinase binding, competitor, MIB/MS competition, refers to: MCK1; Candida albicans cell lysate; 100 nM; reference: DMSO).
For `Cc1cc([C@H]2C[C@H]3[C@@H](C)SC(N)=N[C@@]3(c3ccc(F)cc3F)CO2)on1`, “brain Aβ40 level” read 1.42 ng/g (refers to: Aβx-40; wild-type mouse, brain; subcutaneous, 50 mg/kg, 9 h).
`Nc1ccn([C@H]2C[C@H](O)[C@@H](CO)O2)c(=O)n1`: “log2 fold change” -0.18 (binding, MIDAS equilibrium dialysis LC-MS; A2AR-BRIL thermostabilized; concentration not given; reference: no-protein control).
Under “log2 fold change”, `Cc1n[nH]c2ccc(-c3cc(OC[C@@H](N)Cc4ccccc4)cnc3-c3ccoc3)cc12` is recorded as 0.0997 (kinase binding, competitor, MIB/MS competition, refers to: CKA2; Candida albicans cell lysate; 100 nM; reference: DMSO).
`COc1cc(Nc2ncc3c(n2)-c2ccc(Cl)cc2C(c2c(F)cccc2OC)=NC3)ccc1C(=O)O` — result for “median response score”: 8 (female NOD/scid mice, ALL-19 B-precursor ALL xenograft; 10.4 mg/kg, 5 days weekly, score scale 0 to 10; direction not given).
With `CCCCC1(CCCC)CN(c2ccccc2)c2cc(SC)c(OCC(=O)N[C@@H](C(=O)NCC(=O)O)c3ccccc3)cc2S(=O)(=O)C1` the plasma C4 was 63.6 ng/mL (refers to: 7α-hydroxy-4-cholesten-3-one; human, plasma; 5 mg once daily, day 14).
With `Cc1cc([C@H]2C[C@H]3[C@@H](CF)SC(N)=N[C@@]3(c3ccc(F)cc3F)CO2)on1` the Aβ40 level was 0.26 ng/mL (refers to: Aβx-40; Mus musculus wild-type, cerebrospinal fluid; subcutaneous, 100 mg/kg, 5 h).
Under “inguinal white adipose weight”, `CCc1c(C)nc(-c2ccc(Cl)s2)nc1Nc1ccc(CC(=O)O)cc1` is recorded as “no effect” (C57BL/6J mouse, high-fat diet MASH model; intraperitoneal, 0.3 mg/kg daily, 60% fat diet for 12 weeks, dosed final four weeks; reference: untreated).
`COc1ccc(F)cc1C(=O)NCc1ccc(-c2nn([C@@H](C)C(F)(F)F)c(N)c2C(N)=O)cc1` gave a response rate of 75% (prior Richter's transformation patients; dose not given).
`CN(C(=O)n1cnc(-c2ccc[n+]([O-])c2)c1)C1CCCCC1` gave an anandamide level of 100 ± 9.3 pmol/g (mouse, brain; oral, 10 mg/kg, 8 h).
`CC(Cc1ccc(O)c(O)c1)C(C)Cc1ccc(O)c(O)c1` (stereo not shown) — result for “DPPH radical scavenging”: 87.35 ± 0.05% (DPPH; methanol; concentration not given, 60 min).
For `O=S(=O)(NCCNC/C=C/c1ccc(Br)cc1)c1cccc2cnccc12`, “embryos reaching 8-cell” read 0% (mouse zygotes; 20 µM, 72 h post-hCG).
The EC50 of `CC1(C)CCC(CN2CCN(c3ccc(C(=O)NS(=O)(=O)c4ccc(NCC5CCOCC5)c([N+](=O)[O-])c4)c(Oc4cnc5[nH]ccc5c4)c3)CC2)=C(c2ccc(Cl)cc2)C1` is reported as 2300 nM (cell killing; primary canine neoplastic B cells, dog 28; 24 h).
`Cc1coc([C@H]2C[C@H]3[C@@H](CF)SC(N)=N[C@@]3(c3ccc(F)cc3F)CO2)n1` — result for “brain Aβ40 level”: 1.63 ng/g (refers to: Aβx-40; wild-type mouse, brain; subcutaneous, 80 mg/kg, 1 h).
With `CC(C)(C)c1sc2ncnc(Oc3c(F)cccc3OC(F)(F)F)c2c1-c1ccc(Cl)cc1` the antihyperalgesia was 98% (paw withdrawal latency; MrgprX1 mice, CCI model; oral, 10 mg/kg, 2 h, day 14 post-CCI, heat hyperalgesia).
`O=P(O)(O)O[C@@H]1[C@H](O)[C@H](O)[C@@H](OP(=O)(O)O)[C@H](OP(=O)(O)O)[C@H]1O`: “log2 fold change” -0.453 (binding, MIDAS equilibrium dialysis LC-MS; A2AR-BRIL thermostabilized; concentration not given; reference: no-protein control).
For `COC(=O)c1sc(-c2cccs2)cc1NC(=O)/C=C/C(=O)O`, IL-6 release read “decreased” (ELISA; bone marrow-derived macrophages, C57BL/6J mice; dose not given, 48 h, with: LPS 24 h).
The Aβ42 level of `Cn1cc([C@H]2C[C@H]3CSC(N)=N[C@@]3(c3ccc(F)cc3F)CO2)cn1` is reported as 0.54 ng/g (refers to: Aβx-42; Mus musculus wild-type, brain; subcutaneous, 10 mg/kg, 1 h).
`c1ccc(-c2n[nH]cc2-c2ccnc3ccccc23)nc1`: “log2 fold change” 1.35 (kinase binding, competitor, MIB/MS competition, refers to: HST7; Candida albicans cell lysate; 100 nM; reference: DMSO).
For `CN(C)C(=O)c1cc2cnc(Nc3ccc(N4CCNCC4)cn3)nc2n1C1CCCC1`, “GSEA enrichment score” read 0.41 (RNA-seq GSEA, refers to: HALLMARK_GLYCOLYSIS; MB002 tumour; concentration not given, in vivo; reference: vehicle, direction not given).
Under “log2 fold change”, `O=C(O)[C@@H](O)[C@H](O)[C@H](O)CO` is recorded as -0.223 (binding, MIDAS equilibrium dialysis LC-MS; A2AR-BRIL thermostabilized; concentration not given; reference: no-protein control).
`C[C@H](Oc1ccc(Br)cc1-c1ccon1)C(=O)O` — result for “difference from placebo”: 1.04% (muscle velocity recovery cycle; human, tibialis anterior muscle; 200 mg once daily, first response latency at 15 Hz, multiple ascending dose).
For `C[C@@H](NC(=O)N1C(=O)[C@H](Cc2ccnc(N)c2)[C@H]1C(=O)O)C1CCCCC1`, the aPTT AUEC was 177 (human; iv infusion, 0.6 mg/kg/h, 24 h, unit not given; reference: baseline).
`O=C[C@H](O)[C@H]1OC(=O)[C@@H](O)[C@H]1O`: “log2 fold change” -0.0965 (binding, MIDAS equilibrium dialysis LC-MS; A2AR-BRIL thermostabilized; concentration not given; reference: no-protein control).
Under “patients with IPA above threshold”, `CSCCNc1nc(SCCC(F)(F)F)nc2c1ncn2[C@@H]1O[C@H](COP(=O)(O)OP(=O)(O)C(Cl)(Cl)P(=O)(O)O)[C@@H](O)[C@H]1O` is recorded as 5.3% (platelet aggregation, light transmittance aggregometry; human, platelet-rich plasma; dose not given, 4 to 6 h, IPA above 80 %, with: ADP 20 µM; reference: patients).
`COc1cnc2cccc(N3CCc4c(cc(Cn5ccnc5C)cc4-c4cn(C)nc4C(F)(F)F)C3=O)c2c1` has an EC50 of 42.9 nM (GSU; cell growth; 120 h).
`OC[C@H]1O[C@H](OCC2O[C@@H](O)[C@H](O)[C@@H](O)[C@@H]2O)[C@H](O)[C@@H](O)[C@H]1O` (stereo partly shown): “log2 fold change” -0.073 (binding, MIDAS equilibrium dialysis LC-MS; A2AR-BRIL thermostabilized; concentration not given; reference: no-protein control).
`CSc1cc(Oc2ccnc3[nH]c(=O)cnc23)ccc1NC(=O)Nc1cc(C(C)(C)C)nn1-c1ccccc1` gave a phospho ratio of 0.2 (patient-derived cell line clone; RPPA, refers to: phospho ribosomal protein S6; human; 1 µM, 4 h; reference: DMSO).
`COc1cc(C(O)C(=O)O)ccc1O` (racemic): “log2 fold change” -1.51 (binding, MIDAS equilibrium dialysis LC-MS; A2AR-BRIL thermostabilized; concentration not given; reference: no-protein control).
Under “brain tumour burden”, `Cc1cc(-c2nc(C(=O)Nc3cc4oc(N5CCOCC5)nc4nc3N3CC[C@@H](O)C3)co2)ccn1` is recorded as “decreased” (mouse, B16-F10 melanoma brain metastasis; 100 mg/kg, day 12, treatment day 7).

Repeated from above:
For `N#Cc1ccn2c(-c3ccncc3)c(-c3ccc(F)cc3)nc2c1`, “log2 fold change” read -0.0922 (kinase binding, competitor, MIB/MS competition, refers to: MCK1; Candida albicans cell lysate; 100 nM; reference: DMSO).
With `CCCCC1(CCCC)CN(c2ccccc2)c2cc(SC)c(OCC(=O)N[C@@H](C(=O)NCC(=O)O)c3ccccc3)cc2S(=O)(=O)C1` the plasma C4 was 63.6 ng/mL (refers to: 7α-hydroxy-4-cholesten-3-one; human, plasma; 5 mg once daily, day 14).
The Aβ42 level of `Cn1cc([C@H]2C[C@H]3CSC(N)=N[C@@]3(c3ccc(F)cc3F)CO2)cn1` is reported as 0.54 ng/g (refers to: Aβx-42; Mus musculus wild-type, brain; subcutaneous, 10 mg/kg, 1 h).
`Cc1coc([C@H]2C[C@H]3[C@@H](CF)SC(N)=N[C@@]3(c3ccc(F)cc3F)CO2)n1` — result for “brain Aβ40 level”: 1.63 ng/g (refers to: Aβx-40; wild-type mouse, brain; subcutaneous, 80 mg/kg, 1 h).
